Results of several laboratories.
Each line is one published result; not all experiments were run side by side. “And” joins repeats or separate records; there may be more than shown. ± gives the spread as reported.
USP20 ZnF-UBD domain: Ubiquitin carboxyl-terminal hydrolase 20, ZnF-UBD domain (USP20, Homo sapiens, UniProt Q9Y2K6)
Chain of UniProt Q9Y2K6 (whole entry, looked up): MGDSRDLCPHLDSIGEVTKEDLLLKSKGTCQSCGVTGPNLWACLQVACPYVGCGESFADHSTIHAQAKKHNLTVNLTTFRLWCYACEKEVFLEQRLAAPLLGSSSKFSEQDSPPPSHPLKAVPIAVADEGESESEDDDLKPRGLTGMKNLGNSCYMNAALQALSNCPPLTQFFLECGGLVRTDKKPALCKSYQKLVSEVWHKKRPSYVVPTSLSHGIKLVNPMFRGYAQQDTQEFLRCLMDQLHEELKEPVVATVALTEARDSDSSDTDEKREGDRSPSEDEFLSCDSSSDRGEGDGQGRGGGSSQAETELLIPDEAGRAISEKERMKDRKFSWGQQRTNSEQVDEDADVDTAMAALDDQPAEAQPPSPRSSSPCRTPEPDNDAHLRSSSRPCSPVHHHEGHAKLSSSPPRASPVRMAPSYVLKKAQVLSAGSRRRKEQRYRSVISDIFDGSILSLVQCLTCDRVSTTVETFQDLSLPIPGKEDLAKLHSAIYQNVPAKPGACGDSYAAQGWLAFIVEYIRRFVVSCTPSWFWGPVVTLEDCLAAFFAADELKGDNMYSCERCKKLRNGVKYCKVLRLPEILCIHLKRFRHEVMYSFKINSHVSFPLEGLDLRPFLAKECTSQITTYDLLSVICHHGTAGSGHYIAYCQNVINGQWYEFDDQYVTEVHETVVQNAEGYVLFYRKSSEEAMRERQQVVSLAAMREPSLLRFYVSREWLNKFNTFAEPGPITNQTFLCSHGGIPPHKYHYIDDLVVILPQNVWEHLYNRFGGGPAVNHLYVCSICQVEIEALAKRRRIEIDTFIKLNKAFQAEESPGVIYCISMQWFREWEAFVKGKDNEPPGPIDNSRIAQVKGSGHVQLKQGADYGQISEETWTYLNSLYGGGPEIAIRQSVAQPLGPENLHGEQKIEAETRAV
Chain of UniProt Q9Y616 (whole entry, looked up): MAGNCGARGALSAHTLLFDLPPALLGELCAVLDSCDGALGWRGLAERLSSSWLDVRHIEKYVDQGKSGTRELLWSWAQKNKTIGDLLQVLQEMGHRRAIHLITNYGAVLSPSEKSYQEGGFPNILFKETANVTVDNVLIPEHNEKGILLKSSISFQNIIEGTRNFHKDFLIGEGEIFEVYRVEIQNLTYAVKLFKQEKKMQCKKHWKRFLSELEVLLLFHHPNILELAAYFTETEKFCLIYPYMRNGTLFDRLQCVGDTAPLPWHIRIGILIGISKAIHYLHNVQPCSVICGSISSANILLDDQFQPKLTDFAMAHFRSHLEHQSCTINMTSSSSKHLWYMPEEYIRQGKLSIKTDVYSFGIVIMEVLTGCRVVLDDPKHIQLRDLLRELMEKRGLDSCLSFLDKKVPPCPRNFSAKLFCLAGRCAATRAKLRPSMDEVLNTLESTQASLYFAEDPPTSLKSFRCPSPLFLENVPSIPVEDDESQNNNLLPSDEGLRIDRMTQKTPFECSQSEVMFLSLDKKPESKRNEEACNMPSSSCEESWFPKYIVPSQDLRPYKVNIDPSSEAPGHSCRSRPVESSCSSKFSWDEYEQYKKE

SMILES = Nc1nc2cc(-c3ccc4ncc(C(=O)N5CCOCC5)n4c3)ccc2o1; target or system = NLRP3 inflammasome (mouse); test system = mouse BMDM; setting = 10 µM; endpoint = inhibition; value = -1.1%
SMILES = CC[C@@H]1[C@H](F)C(=O)N[C@@H]1COc1nccc2cc(C(N)=O)c(OC)cc12; target or system = IRAK3 (Homo sapiens, UniProt Q9Y616); test = ATP-site probe binding, inhibitor, ActivX ATP probe profiling; test system = THP-1 cell lysate; setting = 0.01 mM, kinase domain site; endpoint = inhibition; value = -5.3%
SMILES = CN(C)CC(=O)O; test = binding, equilibrium dialysis LC-MS; setting = 5 µM, thermostabilized A2AR-BRIL construct; scale = baseline: no-protein control, direction not given; endpoint = z-scored log2 fold change; value = 0.191
SMILES = O=C(O)CCC1=Nc2cccc3cccc(c23)N1; target or system = USP20 ZnF-UBD domain; endpoint = Kd; value = > 1000 µM
SMILES = Cc1nc(N(C)C(=O)Cc2ccc(-c3ccccn3)cc2)sc1S(N)(=O)=O; target or system = human alphaherpesvirus 1; test system = primary human keratinocytes, K26 GFP; scale = baseline: CC50 over IC50; endpoint = selectivity index; value = 396
SMILES = CCCc1nn(C)c2c(=O)[nH]c(-c3cc(S(=O)(=O)N4CCN(C)CC4)ccc3OCC)nc12; target or system = Cryptosporidium parvum; test = parasite growth, immunofluorescence imaging; test system = HCT-8, Iowa; setting = 24.7 nM; endpoint = inhibition; value = -29% and -17.7%
SMILES = OC[C@H]1O[C@@](CO)(O[C@H]2O[C@H](CO)[C@@H](O)[C@H](O)[C@H]2O)[C@@H](O)[C@@H]1O; test = binding, equilibrium dialysis LC-MS; setting = 5 µM, thermostabilized A2AR-BRIL construct; scale = baseline: no-protein control, direction not given; endpoint = z-scored log2 fold change; value = 0.192
SMILES = CN(C)C(=N)NC(=N)N; target or system = NLRP3 inflammasome (mouse); test system = mouse BMDM; setting = 10 µM; endpoint = inhibition; value = 87.9%
SMILES = CN(C)C/C=C/C(=O)Nc1cc2c(Nc3ccc(F)c(Cl)c3)ncnc2cc1O[C@H]1CCOC1; target or system = iCell Cardiomyocytes (hiPSC-derived); test = xCELLigence Cardio impedance; setting = concentration not given, 2 h; scale = baseline: control; endpoint = beat amplitude; value = 91.2%
SMILES = O=C[C@@H](O)[C@@H](O)[C@H](O)[C@H](O)COP(=O)(O)O; test = binding, equilibrium dialysis LC-MS; setting = 5 µM, thermostabilized A2AR-BRIL construct; scale = baseline: no-protein control, direction not given; endpoint = z-scored log2 fold change; value = 0.126
SMILES = COc1cc(N2CCC(N3CCN(C)CC3)CC2)ccc1Nc1ncc(Cl)c(Nc2ccccc2S(=O)(=O)C(C)C)n1; target or system = iCell Cardiomyocytes (hiPSC-derived); test = xCELLigence Cardio impedance; setting = concentration not given, 2 h; scale = baseline: control; endpoint = beat rate; value = 76.7%
SMILES = Cc1cc2c(F)c(Oc3ncnn4cc(OC[C@@H](C)OC(=O)[C@H](C)N)c(C)c34)ccc2[nH]1; target or system = NLRP3 inflammasome (mouse); test system = mouse BMDM; setting = 10 µM; endpoint = inhibition; value = 37.9%
SMILES = O=C(O)C[C@H](Nc1ncnc2c1ncn2[C@@H]1O[C@H](COP(=O)(O)O)[C@@H](O)[C@H]1O)C(=O)O; test = binding, equilibrium dialysis LC-MS; setting = 5 µM, thermostabilized A2AR-BRIL construct; scale = baseline: no-protein control, direction not given; endpoint = z-scored log2 fold change; value = 0.0421
SMILES = O=C(O)c1ccc(Nc2ncc3c(n2)-c2ccc(Cl)cc2C(c2c(F)cccc2F)=NC3)cc1; target or system = iCell Cardiomyocytes (hiPSC-derived); test = CellTiter-Glo; setting = concentration not given, 24 h; scale = baseline: control; endpoint = ATP level; value = 87%
SMILES = FC(F)(F)c1ccc(CNc2ccc(Cc3c[nH]c4ncc(Cl)cc34)cn2)cn1; target or system = NLRP3 inflammasome (mouse); test system = mouse BMDM; setting = 10 µM; endpoint = inhibition; value = 63.2%
SMILES = C/C(=C/C(=O)O)C(=O)O; test = binding, equilibrium dialysis LC-MS; setting = 5 µM, thermostabilized A2AR-BRIL construct; scale = baseline: no-protein control, direction not given; endpoint = z-scored log2 fold change; value = 0.578
SMILES = CC(C)C[C@H](NC(=O)C[C@H](O)[C@H](CC(C)C)NC(=O)[C@H](Cc1c[nH]cn1)NC(=O)CNC(=O)[C@@H](NC(=O)[C@H](C)NC(=O)[C@H](Cc1c[nH]c2ccccc12)NC(=O)[C@H](CCC(N)=O)NC(=O)[C@@H](Cc1ccccc1)NC(=O)COCCOCCNC(=O)CCC(C(=O)O)N1CCN(CC(=O)O)CCN(CC(=O)O)CCN(CC(=O)O)CC1)C(C)C)C(N)=O (stereo partly shown) [lutetium-177 labelled]; test system = female BALB/c nu/nu mice, blood; setting = intravenous, 100 pmol, 48 h, together with: PA 300 µg; endpoint = tissue uptake; value = 0.0023 ± 0.0007 %ID/g
SMILES = N=C(N)NCCC[C@@H](NC(=O)CCOCCOCCNC(=O)[C@H](CCCCNC(=O)CC[C@H](NC(=O)c1ccc(NCc2cnc3nc(N)[nH]c(=O)c3n2)cc1)C(=O)O)NC(=O)CO/N=C/[C@H](F)[C@@H](O)[C@H](O)[C@H](O)CO)C(=O)NCC(=O)N[C@H](CC(=O)O)C(N)=O [fluorine-18 labelled]; test system = female nude mouse, liver; setting = intravenous, 1 µg, 0.75 h; endpoint = tissue uptake; value = 1.1 ± 0.22 %ID/g
SMILES = C[C@]1(O)C[C@@H](c2nc(-c3ccc4ccc(-c5ccccc5)nc4c3)c3c(N)nccn32)C1; target or system = NLRP3 inflammasome (mouse); test system = mouse BMDM; setting = 10 µM; endpoint = inhibition; value = -30.6%
SMILES = CCCCCCCC(=O)O; test = binding, equilibrium dialysis LC-MS; setting = 5 µM, thermostabilized A2AR-BRIL construct; scale = baseline: no-protein control, direction not given; endpoint = z-scored log2 fold change; value = 0.157
SMILES = O=C(O)CCc1ccc2c(c1)OCO2; target or system = USP20 ZnF-UBD domain; endpoint = Kd; value = > 1000 µM
SMILES = OC(CCN1CCCCC1)(c1ccccc1)C1CC2C=CC1C2 (stereo not shown); test = resting-state EEG; test system = healthy elderly humans; setting = oral, 2 mg, eyes open, LS mean; endpoint = power, alpha, EEG O1-Pz; value = 9 µV²
SMILES = c1coc(-c2n[nH]cc2-c2ccnc3ccccc23)c1; target or system = SSK2 (Candida albicans); test = kinase binding, MIB/MS competition; test system = Candida albicans lysate; setting = 1 µM; scale = baseline: DMSO; endpoint = log2 fold change; value = -0.36
SMILES = Cn1cc(-c2ccc(-c3cncc(Cl)c3N3CCC4(CCNC4=O)CC3)cc2)cn1; target or system = COLO 205; test = gene expression, microarray, measured: SLC2A1 (GLUT1) mRNA; setting = concentration not given, 6 h; scale = baseline: untreated cells; endpoint = log2 fold change; value = 3.07
SMILES = Cc1cc(Nc2ccc(S(F)(F)(F)(F)F)cc2)n2nc(C(C)(F)F)nc2n1; target or system = Plasmodium falciparum; test = LC-MS/MS; test system = malaria patients, plasma; setting = oral, 400 mg; endpoint = terminal half-life; value = 96.7 h

Repeated from above:
SMILES = Nc1nc2cc(-c3ccc4ncc(C(=O)N5CCOCC5)n4c3)ccc2o1; target or system = NLRP3 inflammasome (mouse); test system = mouse BMDM; setting = 10 µM; endpoint = inhibition; value = -1.1%
SMILES = CC[C@@H]1[C@H](F)C(=O)N[C@@H]1COc1nccc2cc(C(N)=O)c(OC)cc12; target or system = IRAK3 (Homo sapiens, UniProt Q9Y616); test = ATP-site probe binding, inhibitor, ActivX ATP probe profiling; test system = THP-1 cell lysate; setting = 0.01 mM, kinase domain site; endpoint = inhibition; value = -5.3%
SMILES = CN(C)CC(=O)O; test = binding, equilibrium dialysis LC-MS; setting = 5 µM, thermostabilized A2AR-BRIL construct; scale = baseline: no-protein control, direction not given; endpoint = z-scored log2 fold change; value = 0.191
SMILES = O=C(O)CCC1=Nc2cccc3cccc(c23)N1; target or system = USP20 ZnF-UBD domain; endpoint = Kd; value = > 1000 µM
